Results pooled from the literature.
Protocols differ between the studies behind these lines.
Organism: Enterococcus faecium

CNc1nc(SC)nc2ccccc12 — MIC (microbial growth, broth dilution; X7501): 64 µM
C[n+]1ccc(/C=C2\Sc3ccccc3N2CCCN2CCCC2)c2ccccc21 — MIC (microbial growth, broth dilution; ATCC700221; drug-resistant strain): 32 µg/mL
CCCCCCCCCCCCCCCc1cc(O)cc(O)c1 — MIC (microbial growth, broth dilution; drug-resistant strain): 64 µg/mL
CCN(CC)CCCN1/C(=C/c2cc(C)[n+](C)c3ccccc23)Sc2ccccc21 — MIC (microbial growth, broth dilution; ATCC700221): 16 µg/mL
CCCCCCCCCCCCCC(=O)N[C@H](CCN)C(=O)N[C@H](C(=O)N[C@@H](CCN)C(=O)N[C@@H](CC(C)C)C(=O)N[C@H]1CCNC(=O)[C@H](CC(=O)O)NC(=O)[C@H](C(C)C)NC(=O)[C@@H](Cc2ccc(O)cc2)NC(=O)[C@H](CCN)NC(=O)[C@H](CC(C)C)NC(=O)[C@@H](Cc2ccccc2)NC1=O)[C@@H](C)O — MIC (broth microdilution; BNCC 186301): 2 µg/mL
Cc1ccc2nc(C)c(C(=O)NCc3cccs3)n2c1 — MIC (microbial growth, broth dilution; X7501): > 64 µM
CCCCCCCCCCCCCC(=O)N[C@H](CCN)C(=O)N[C@H](C(=O)N[C@@H](CCN)C(=O)N[C@@H](CC(C)C)C(=O)N[C@@H](CCN)C(=O)N[C@H](Cc1ccccc1)C(=O)N[C@@H](CC(C)C)C(=O)N[C@@H](CCN)C(=O)N[C@H](Cc1ccc(O)cc1)C(=O)N[C@H](C(=O)N[C@@H](CC(=O)O)C(=O)O)C(C)C)[C@@H](C)O — MIC (broth microdilution; BNCC 186301): 2 µg/mL
CC1=C[C@@]2(C)C(=C(C)[C@H]3[C@@H]4C[C@H](C)C[C@H](C)[C@H]4[C@H]4Oc5ccc(cc5)C[C@@H]5C(=O)NC(=O)[C@H]5C(=O)[C@@H]2[C@@H]43)[C@H]1C — MIC (microbial growth, broth dilution; ATCC700221; drug-resistant strain): 12.5 µM
CN1C(=O)[C@@H]2NC(=O)[C@@H]3NC(=O)[C@@H](c4ccc(O)cc4)NC(=O)[C@H](NC(=O)C(NCc4cc(O)cc(O)c4)c4ccc(O)cc4)Cc4c[nH]c5cc(ccc45)-c4cc3cc(c4O)Oc3ccc(cc3)C[C@H]1C(=O)N[C@@H](C(=O)O)c1ccc(O)c(c1)Oc1ccc2cc1 (stereo partly shown) — MIC (brain heart infusion medium): 16 µg/mL
C[C@H]1COc2c(N3CCN(C)CC3)c(F)cc3c(=O)c(C(=O)N[C@@H](CCCNC(=N)N)C(=O)N[C@@H](Cc4ccc(-c5ccccc5)cc4)C(=O)N[C@@H](CCCNC(=N)N)C(=O)N[C@@H](Cc4ccc(-c5ccccc5)cc4)C(=O)N[C@@H](CCCNC(=N)N)C(N)=O)cn1c23 — MIC (broth microdilution; ATCC 2316; 18 h, 37 °C): 5 µM
CN1C(=O)[C@@H]2NC(=O)[C@@H]3NC(=O)[C@@H](c4ccc(O)cc4)NC(=O)[C@H](NC(=O)C(NCc4cccc(-c5ccc(F)cc5)c4)c4ccc(O)cc4)Cc4c[nH]c5cc(ccc45)-c4cc3cc(c4O)Oc3ccc(cc3)C[C@H]1C(=O)N[C@@H](C(=O)O)c1ccc(O)c(c1)Oc1ccc2cc1 (stereo partly shown) — MIC (brain heart infusion medium): 16 µg/mL
CCCCCC/C=C\CCCCCCC[C@@H](O)Cc1cc(O)cc(O)c1 — MIC (microbial growth, broth dilution; drug-resistant strain): 8 µg/mL
CN(C)CCCNC(=O)[C@@H]1NC(=O)[C@@H]2Cc3ccc(cc3)Oc3cc4cc(c3O)-c3ccc5c(c[nH]c5c3)C[C@@H](NC(=O)C(NC(=O)CCCCCN)c3ccc(O)cc3)C(=O)N[C@H](c3ccc(O)cc3)C(=O)N[C@H]4C(=O)N[C@@H](C(=O)N2C)c2ccc(cc2)Oc2cc1ccc2O (stereo partly shown) — MIC (WCC 0496, VRE-A): 1 to 2 µg/mL
Cc1ccc2nc(C(F)(F)F)c(C(=O)NCc3cccc(Cl)c3)n2c1 — MIC (microbial growth, broth dilution; X7501): > 64 µM
CNC(CC(C)C)C(=O)NC1C(=O)NC(CC(N)=O)C(=O)NC2C(=O)NC3C(=O)NC(C(=O)NC(C(=O)O)c4cc(O)cc(O)c4-c4cc3ccc4O)C(O)c3ccc(c(Cl)c3)Oc3cc2cc(c3OC2OC(CO)C(O)C(O)C2OC2CC(C)(NCc3ccc(-c4ccc(Cl)cc4)cc3)C(O)C(C)O2)Oc2ccc(cc2Cl)C1O (stereo not shown) — MIC (broth microdilution; ATCC BAA-2317 VanA): 2.5 µg/mL
CN1C(=O)[C@@H]2NC(=O)[C@@H]3NC(=O)[C@@H](c4ccc(O)cc4)NC(=O)[C@H](NC(=O)C(NCc4cccc(C(F)(F)F)c4)c4ccc(O)cc4)Cc4c[nH]c5cc(ccc45)-c4cc3cc(c4O)Oc3ccc(cc3)C[C@H]1C(=O)N[C@@H](C(=O)O)c1ccc(O)c(c1)Oc1ccc2cc1 (stereo partly shown) — MIC (brain heart infusion medium): 16 µg/mL

For quick reference, copied from above:
CN1C(=O)[C@@H]2NC(=O)[C@@H]3NC(=O)[C@@H](c4ccc(O)cc4)NC(=O)[C@H](NC(=O)C(NCc4cccc(C(F)(F)F)c4)c4ccc(O)cc4)Cc4c[nH]c5cc(ccc45)-c4cc3cc(c4O)Oc3ccc(cc3)C[C@H]1C(=O)N[C@@H](C(=O)O)c1ccc(O)c(c1)Oc1ccc2cc1 (stereo partly shown) — MIC (brain heart infusion medium): 16 µg/mL
CCCCCCCCCCCCCCCc1cc(O)cc(O)c1 — MIC (microbial growth, broth dilution; drug-resistant strain): 64 µg/mL
